# Results of several laboratories.
# Every numbered part comes from another study and shows a few of its results, in no order. Positions count from the first letter of the parent shown.

# Series 1
# Target: RING finger protein unkempt homolog, zinc fingers 1-6, GST-SBP tag (UNK, Homo sapiens, UniProt Q9C0B0, residues 30-357)
# Chain of UniProt Q9C0B0 (30-357, looked up): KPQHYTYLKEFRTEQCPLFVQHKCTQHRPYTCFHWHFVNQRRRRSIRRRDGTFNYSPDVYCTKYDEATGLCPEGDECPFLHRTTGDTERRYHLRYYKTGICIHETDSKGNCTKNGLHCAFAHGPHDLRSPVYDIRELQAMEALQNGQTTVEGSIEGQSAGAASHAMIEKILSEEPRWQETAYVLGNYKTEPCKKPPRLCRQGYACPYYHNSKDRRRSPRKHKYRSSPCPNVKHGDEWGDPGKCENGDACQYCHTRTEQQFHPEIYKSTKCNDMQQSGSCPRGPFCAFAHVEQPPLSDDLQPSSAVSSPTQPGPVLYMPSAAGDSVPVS
# Technique: RNA Bind-n-Seq
# Molecule type: RNA
# Medium: in vitro
# Concentration: not given
# Setting: RNA with constant flanks, ends assumed
# Reference: input RNA pool
# Direction: higher = stronger binding
Oligonucleotide,bound/input enrichment [ratio]
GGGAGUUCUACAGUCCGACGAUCAUUAAACAUUACUUCAGUGUAGUUCCCGGAAAUGUAGGCUCUUCCCCCAGAUCUUCUGAUUCCGUCAAAUUAGCUCAAGAAUGCUGUUACCAUAGCAACAGGGGCAUCGCAGCUCAUGGACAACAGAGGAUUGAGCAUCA,0.275
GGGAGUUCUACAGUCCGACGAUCUGUGGUGGAGAAGGUAUCUCAUUCCUCUCCAACAUCAUCUCCACUUUGCAUCUGUCUCUCUCCGUCUGCUUUUUUUCCACCGAUGUAACAGACCUGCAGCCAGCAAGACUCCGAGGGAAGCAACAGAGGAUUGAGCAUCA,0.113
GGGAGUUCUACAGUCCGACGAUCUAAAAAAUCAAGCUAUGUACUUAUUUUCUAUAUUUGGGUGUGUUAAAUUGAGGAUCCGAAAAAUCCACAUAAUCACUGAUAAAGCAUUGAAACAGAAUAACCCAAGGGUAGUGUACCGAUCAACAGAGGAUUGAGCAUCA,0.215
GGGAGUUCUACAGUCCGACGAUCCUUCAGUUACAUCCCAGGGAAGAUGCUUGCAUCCCCAAUACAAACUAUGGUGUUCUCUUAACCGAAUUUUUUGAAUUAUAUGGACGACACUUCAAUUAUUUAAAGACUGGCAUCCGGAUACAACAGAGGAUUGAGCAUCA,0.274
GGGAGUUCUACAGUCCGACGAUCCCAGAUGACCGGUCACAGGGAGCAAUCAUUGCUGACCGGCCAGGGCUGCCUGGCCCAGAGCACCGCCCUUCAGAAUCCCAGCCUUCGUCGCCUUCUCCGACCCCAUCACCAUCCCCAGUCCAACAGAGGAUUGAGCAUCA,0.204
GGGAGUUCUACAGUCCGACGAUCAUAUUACUGCUGUGUAGAAACAUUAGUAGUGUUUUCAUUUUAGGUCCAAGUAAGAUGUUUUCCGUGAUAUACCUGCAGAAUGGCUCUGUCUUAAAACUGUGUAGAAAAACCCUAAUCUUUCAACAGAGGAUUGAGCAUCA,0.631
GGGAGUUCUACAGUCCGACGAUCUCGGGGUGGAAGUCCAUGAUUCAGUCUCAUCCCCAUUUAGUGGCAGAAGCGUUCCGAGCACCCGCAUCUUCACAGUGUCCACAGUUUGGUAUUCCACGCAAAAGGUUAAAGCAGUCUUGACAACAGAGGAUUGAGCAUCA,0.118
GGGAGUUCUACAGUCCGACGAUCGCUAGUAACAAUCGUUUAUUUCAGCUUGUAAUGAAAGGCCUGCUUUAUGAAUGCUGUGCCGAAUUUUGUCAGAGUAAAGCAACUGGAGAAGAAAUUACAGAAAGCGAAGUGCUUCUUGGCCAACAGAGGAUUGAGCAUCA,0.307
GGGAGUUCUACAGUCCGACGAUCUAGACUUCAACAAGAAAAUCCUUCAUACAGCCUGGCAUCCCAAGGAAAACAUCAUUGCUGCCGCAACUACAAACAAUCUGUAUAUAUUUCAAGACAAAGUGAAUUAGGCUGGCAUUCUCUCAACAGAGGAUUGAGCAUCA,0.66
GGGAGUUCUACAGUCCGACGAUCCGCAGAACGGAUGAAGCUCUUACACCAAGUGUCACGAGUCUGGAGAACAGAUGGGUUGAGCCGUUGUUCUUAUAAAUUAGUAUCUGUGGAACACAAUCCUUUAUAUAUCAACAUCACAGUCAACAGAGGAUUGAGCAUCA,0.461
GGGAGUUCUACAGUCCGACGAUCCUGAAUAGCAAUAAAUAUUUUCCCAGCAGGGUUAGCAUAAAGGAAUCAUCUGUAGCGAAACCCGGAUCAGUAUGCCGUAGGAUUUACAGAAUAUUUUCACAUGCUUAUUUUCAUCAUCGGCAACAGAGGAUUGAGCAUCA,1.99

# Series 2
# Target: RNA binding protein fox-1 homolog 2, RRM domain, GST-SBP tag (RBFOX2, Homo sapiens, UniProt O43251-10, residues 100-194)
# Technique: RNA Bind-n-Seq
# Molecule type: RNA
# Medium: in vitro
# Concentration: 365 nM
# Setting: natural RNA segment, single round, ends assumed
# Reference: no-protein control
# Direction: higher = stronger binding
# Target sequence (chain): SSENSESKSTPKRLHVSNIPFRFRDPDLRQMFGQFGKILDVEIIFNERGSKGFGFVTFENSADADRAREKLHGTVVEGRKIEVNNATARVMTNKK
Oligonucleotide,RBNS enrichment (R)
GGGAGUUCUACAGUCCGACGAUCUAACCACAGCCUCACAGCUGGUCUCUGGCAGUGGUUAGGACAGGCGGGAGCAACCACAAUCAAACCUACAGGGCAGGCCCUAGGGUUUGUUAUCCCACGUUCAGGCCAGGUGGAAUUCUCGGGUGCCAA,0.428
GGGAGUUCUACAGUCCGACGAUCCCCAGCUAGUCUAUCUGAGCUCUCGCCUCCAUCCUUGUUUUAAUCAUGCUUCUACAAGGUGAAGUGUGUUUGGGGAAACUGAGCUCUAACAAAAGCCGCGACAGCCACCAUGGAAUUCUCGGGUGCCAA,0.481
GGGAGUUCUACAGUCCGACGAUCUUCUCCUCCUCCCCUCAGCCUUGUGGCCAGUUCCUCUUCACAUGAAGCCCCUGGCAUUUGCUGGGGAAGGGACUGGCCUGGUACUUGCUGUUAGGGCAGGAAGGGGCAAAUGGAAUUCUCGGGUGCCAA,0.262
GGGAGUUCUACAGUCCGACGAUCCGGGGACACACACGGCUGAACCUUCCCCACGGGACCCCGAGUGGCCCCACCCUGCCUCUUGUCCUGUUGCUAUGUCCUGGUCCUUCUUCCCGCUCUGGGCUUCUCUCAACUGGAAUUCUCGGGUGCCAA,0.813
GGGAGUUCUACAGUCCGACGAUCACAGUUGGUGUCUGGGAAGGUAUUGAACGCUCCUCACCCUGUGCCCGAAGAGACCCGGAACCAAGACCAUGGCAGGGCCUGCGUGGAAGCAGGUCCAGGCGUUUCUAGAAUGGAAUUCUCGGGUGCCAA,0.436
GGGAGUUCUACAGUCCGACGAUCGAGAAAAACUUCAGGUUUUGAAAAUCAGAUGAUGUCUUCUCCUUUUCCAAACACCACACGUUGAAAGCAUUUAUAAAUCCAAGUCUGAAACUCUGCGCUCUAGUACUGCUUGGAAUUCUCGGGUGCCAA,1.02
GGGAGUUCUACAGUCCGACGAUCGCUCUGUGCCUUUCCUGGGGAGGGAAGGGGAUGAACUGGUAGAUUUGAAAGCAGUAUGGCUUCUUCUGUGGGUCUCCCUCUUACUAGACAAGGUGAAAUGAUAAUUCGUGUGGAAUUCUCGGGUGCCAA,1.28
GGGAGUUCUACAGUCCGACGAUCACUCCACGCUCCCCACAGGCCAACCCUGGCACAGGUCAUGUCUGCAGCCCCCAGAAUGUUCUGGACAUGCACCACCAGCCGGUGGUCCCAAUGUCCACCCCUGCCUCCCCUGGAAUUCUCGGGUGCCAA,0.737
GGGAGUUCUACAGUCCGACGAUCUUUGAGAUGCAGAAUUCAUCUUUUUUGGAAUAUUUCCAUGGUGGAGCUCAGUCAUCACACUUCAAGAGCUGAGAACACUCUGAGCCCGGCAAGAAUACAGGACUUCUUAGUGGAAUUCUCGGGUGCCAA,0.273
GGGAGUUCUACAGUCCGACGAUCGGGGCAGCAGCCUGGCCUGUGCCAUGGUGGGUGUCCUGGGGCCUGUGCGGAGGGAGCCACCUCACCCUGCAGCCCAGUUUGCAGGUGUGGCCUUGUUUCUCCUUGCCCAGUGGAAUUCUCGGGUGCCAA,0.248
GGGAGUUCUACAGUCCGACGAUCCUUUUGUUCCUAUUCAGGACUUGAGGUAUAGUGCCAUAAAAUGUAGCAAAAACCCUAUCGGCCAGAUCAGUGUUACAUUGAUUCUAAGAUUACAGUAUGUCCCAUCAAACUGGAAUUCUCGGGUGCCAA,0.15
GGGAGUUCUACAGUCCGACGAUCACAUACAUACCUGUACAUAUUUAGAUAUAAGCUGCUAUAUGUUGAAUGGACCCUUUUGCUUUUCUGAUUUUUAGUUCUGACAUGUAUAUAUUGCUUCAGUAGAGCCACAAUGGAAUUCUCGGGUGCCAA,1.06

# Series 3
# Target: CCND3, cyclin fold, Cln2 fusion (human)
# Technique: yeast growth competition, sequencing
# Medium: yeast
# Setting: weak parent motif
# Reference: not given
# Direction: higher = stronger binding
# Starting sequence: RBL2 docking peptide (human); STTRRRLFVENDS; partner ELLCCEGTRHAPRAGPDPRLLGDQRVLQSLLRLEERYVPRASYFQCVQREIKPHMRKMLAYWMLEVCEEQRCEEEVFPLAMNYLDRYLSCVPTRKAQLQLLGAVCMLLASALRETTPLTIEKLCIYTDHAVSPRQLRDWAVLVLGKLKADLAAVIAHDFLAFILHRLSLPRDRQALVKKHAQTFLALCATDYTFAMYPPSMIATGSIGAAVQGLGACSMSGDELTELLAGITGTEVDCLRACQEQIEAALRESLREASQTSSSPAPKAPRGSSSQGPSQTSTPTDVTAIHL
Variant,normalised enrichment score
STTRRILFVENDS [R6I],0.112
STTRRRLFVEMDS [N11M],0.155
STLRRRLFVENDS [T3L],0.111
STTRPRLFVENDS [R5P],0.169
STTRRRLFVENGS [D12G],0.141
GTTRRRLFVENDS [S1G],0.1
STRRRRLFVENDS [T3R],0.1
STTCRRLFVENDS [R4C],0.185

# Mixed results
Substance,target,assay,test system,conditions,how to read,quantity,result
"PhoQ, residues 284 288 289 292 302 303 TNASYF","PhoP, residues 12 14 15 18 19 LWHSL (Escherichia coli, UniProt P23836)","Sort-seq, refers to: YFP reporter",E. coli,"PhoQ-PhoP variant library, with: 10 µM Mg2+","reference: high Mg2+ state, higher = stronger signaling",fold induction,18.5

# A few entries again (series 1):
Oligonucleotide,bound/input enrichment [ratio]
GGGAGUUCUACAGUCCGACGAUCUGUGGUGGAGAAGGUAUCUCAUUCCUCUCCAACAUCAUCUCCACUUUGCAUCUGUCUCUCUCCGUCUGCUUUUUUUCCACCGAUGUAACAGACCUGCAGCCAGCAAGACUCCGAGGGAAGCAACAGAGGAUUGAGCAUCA,0.113
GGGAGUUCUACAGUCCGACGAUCUAAAAAAUCAAGCUAUGUACUUAUUUUCUAUAUUUGGGUGUGUUAAAUUGAGGAUCCGAAAAAUCCACAUAAUCACUGAUAAAGCAUUGAAACAGAAUAACCCAAGGGUAGUGUACCGAUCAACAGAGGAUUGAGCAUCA,0.215
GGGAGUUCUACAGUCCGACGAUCCUUCAGUUACAUCCCAGGGAAGAUGCUUGCAUCCCCAAUACAAACUAUGGUGUUCUCUUAACCGAAUUUUUUGAAUUAUAUGGACGACACUUCAAUUAUUUAAAGACUGGCAUCCGGAUACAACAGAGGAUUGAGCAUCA,0.274
